# Results collected from several papers.
# Each numbered part is a random draw from the data of one study; scales do not carry over between parts.

# Study 1
# Target: Fragile X messenger ribonucleoprotein 1, C-terminal low-complexity region (Fmr1, Mus musculus, UniProt P35922)
# Method: RNA Bind-n-Seq
# Form: RNA
# Sample: in vitro
# Concentration: 200 nM
# Setting: whole 134-nt RNA, ends assumed
# With: 150 mM KCl
# Reference: input library
# Direction: higher = stronger binding
Sequence,log2 enrichment
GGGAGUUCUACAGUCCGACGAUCAGUCCUGUGCUACACAUCGUAUGUACCGAAUCGGAAAAAGGAAAAAGGUUUUUUUGGAAAGUAUUAUGUUACGCCGUUCGGAUCUGCACUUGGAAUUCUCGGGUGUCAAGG,-1.38
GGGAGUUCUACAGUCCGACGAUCAGUCCUGUGCUACACAUCGUAUGUACCGAAUCGGGGUUUGGGGUUUUUGGGGAGGGGAAAGUAUUAUGUUACGCCGUUCGGAUCUGCACUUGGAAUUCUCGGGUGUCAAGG,0.987
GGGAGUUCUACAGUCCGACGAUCUCCUCAAGUCCUGUGCUACACAUCGUAUGUACCGAAUCGGGUGGUGGGUGGAAAGUAUUAUGUUACGCCGUUCGGAUCUGCACUUCCAGCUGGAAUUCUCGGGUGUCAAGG,0.228
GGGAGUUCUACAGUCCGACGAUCGUCCUGUGCUACACAUCGUAUGUACCGAAUCGGGAAAAAGGGGAAAAAGGGGAAAAAGGAAAGUAUUAUGUUACGCCGUUCGGAUCUGCAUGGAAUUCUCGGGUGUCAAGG,-0.199
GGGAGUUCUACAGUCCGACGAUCGUCCUGUGCUACACAUCGUAUGUACCGAAUCGGGAAAAAGGGAAAAAAAGGGUUUGGGAAAGUAUUAUGUUACGCCGUUCGGAUCUGCACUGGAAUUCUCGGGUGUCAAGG,-0.318
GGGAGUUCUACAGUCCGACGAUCAGUCCUGUGCUACACAUCGUAUGUACCGAAUCAAAUUUAAACCCAAACCCCCCCAAAAAAGUAUUAUGUUACGCCGUUCGGAUCUGCACUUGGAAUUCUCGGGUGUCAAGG,-0.108
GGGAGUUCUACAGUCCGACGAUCCUGUGCUACACAUCGUAUGUACCGAAUCGGGGAAAGGGGUUUUUUUGGGGUUUUUUUGGGGAAAGUAUUAUGUUACGCCGUUCGGAUCUGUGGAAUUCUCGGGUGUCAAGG,-0.0435
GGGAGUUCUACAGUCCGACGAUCUGGGAGGUGGAUUUUGUUUAUUUUUUUUGCUCAUUUCCAGGGGUGGGAAUUUUUUUUUAAUAUGUGUCAUGAAUAAAGUUGUUUUUGAAAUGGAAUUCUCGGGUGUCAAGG,0.28
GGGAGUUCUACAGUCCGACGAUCUCCUGUGCUACACAUCGUAUGUACCGAAUCAAACCCCCCCAAAUUUAAACCCCCCCAAAAAAGUAUUAUGUUACGCCGUUCGGAUCUGCAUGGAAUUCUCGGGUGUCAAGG,0.438
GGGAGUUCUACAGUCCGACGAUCUCAAGUCCUGUGCUACACAUCGUAUGUACCGAAUCGGGGCCCGGCCCGGCCCGGAAAGUAUUAUGUUACGCCGUUCGGAUCUGCACUUCCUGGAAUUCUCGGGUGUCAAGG,-0.221

# Study 2
# Target: Histone acetyltransferase KAT6A, winged helix 2, GST fusion (KAT6A, Homo sapiens, UniProt Q92794, residues 85-181)
# Method: protein binding microarray
# Form: double-stranded DNA, one strand shown
# Sample: in vitro
# Concentration: not given
# Setting: 8-mer, flanks averaged, mean of 2 arrays, mostly near background
# Reference: not given
# Direction: higher = stronger binding
# Target sequence (chain): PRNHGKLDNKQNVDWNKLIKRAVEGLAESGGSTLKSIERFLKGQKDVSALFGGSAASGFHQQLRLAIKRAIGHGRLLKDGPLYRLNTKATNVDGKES
Sequence,E-score
AAGAGACC,0.13
CGTCTGAG,0.0235
CAAGAATC,0.0107
CAGTCGTC,-0.136
CGGACGTA,-0.25
CTCCACTA,-0.00711
ATGGACCA,-0.105
CCAGGATC,-0.0544
GGTGAGAA,0.0181
GGCGAGAA,0.121
CCTGCTGA,0.0568
CAGGCCTA,0.0637
ACACAAGA,-0.0296
AAGGGCCC,-0.006
TTACTCAA,0.0391
AATCAAAA,0.183
GGCCAACA,0.00786
TACCTACA,-0.073
GCCGTGCA,0.124

# Study 3
# Target: RNA binding protein fox-1 homolog 2, RRM domain, GST-SBP tag (RBFOX2, Homo sapiens, UniProt O43251-10, residues 100-194)
# Method: RNA Bind-n-Seq
# Form: RNA
# Sample: in vitro
# Concentration: 365 nM
# Setting: natural RNA segment, single round, ends assumed
# Reference: no-protein control
# Direction: higher = stronger binding
# Residues (chain): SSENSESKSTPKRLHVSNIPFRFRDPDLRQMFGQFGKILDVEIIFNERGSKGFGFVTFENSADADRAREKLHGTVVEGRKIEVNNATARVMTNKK
Sequence,RBNS enrichment (R)
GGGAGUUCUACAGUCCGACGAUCUGUGUGCUCAUUCUUAGAGUGAAGACCCUGAAAGGUAUCCCUUUGCAGCCUGUCUCCUGUUUUGAGCCCUUUAGGGGUAACUCAUUUGUAAAACCACCAGCCUGAGCUCAUGGAAUUCUCGGGUGCCAA,0.272
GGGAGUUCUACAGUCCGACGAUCAAGCUGGUUGUUAUUAACCAAGCUACAGAUUCACACUUUCUGGCCUAAACCCUAAUGGGAUGAGGCUUUUCACCCCAGGCCAUGCUGGUGGUGAUUUUUUAGCCCCUAAAUGGAAUUCUCGGGUGCCAA,0.285
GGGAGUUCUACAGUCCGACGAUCCUGGCUUCUGCCUCACCUGCAACAGGUCUGUCUAUACAUCUGUCUGGGUUGCUGUCAUUUCUGUUUUUCUCUUGCAGUGACAGAUCAGAUCAAGGCGGUAAAUCAAGUGGUGGAAUUCUCGGGUGCCAA,0.328
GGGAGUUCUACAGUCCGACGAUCAUGGUGGCUUGAGUUGUCACUUGGUCCCCUCCGCCCCUCGGGUGGCCCCCUUUGCCACGUCCCCUUAGCUUAGUGAUCAGGUGUGAGAGUGGCCAUUUCCUUACCUUUGAUGGAAUUCUCGGGUGCCAA,0.382
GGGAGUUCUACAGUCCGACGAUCCCAAAUAGUGAUAUAUAAGAGAAAAUCUGUGCUUCAGAGUUUGAUCAGGGCCAUCUCUCCCAACUCUGCUGGAACUGAGAGAAUGCACCUGAUGUUGUCUCCAUUUUAGAUGGAAUUCUCGGGUGCCAA,0.624
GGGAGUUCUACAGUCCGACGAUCCAGAUUAACUUGUGAGAAUCAGGAAAAUUCCUUCAACUGCAUUGCAUCCUCUUGGACCAGGGCUAGAAUGGGGAUUUCAGGUUUCUAUGAGCCUCCCCAUUACCCCUAAAUGGAAUUCUCGGGUGCCAA,0.494
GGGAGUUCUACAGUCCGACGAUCCACCACCUGGGGACCCCCUUGUUGUGUCCAGGACUCCCCCUGUGUCAGUGCUCUGCUCUCACCCUGCCCAAGACUCACCUCCCUUCCCCUCUGCAGGCCGACGGCAGGAGUGGAAUUCUCGGGUGCCAA,0.668
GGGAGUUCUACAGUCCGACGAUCAGUUACAGUUUACUAAUAAAGUUAAGUCUGGUUCUGUCCUAGAGGAAAUAAAUUCACUAUUAAUUCAUGUCUUAAGUUACUUGGGUUAAAACACUUUCAGCCACCCAGAUUGGAAUUCUCGGGUGCCAA,0.373
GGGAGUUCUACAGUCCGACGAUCAGGGGUUCCACUGUACUUUCCGCAUAUUACUGUGUUGUUGUUUUCCUUUGUGGAUAUAUAAGCAAAUUGAGCUUGGGUGAUUUUUAUGGAGACAAUAAUUAGACAAUACUUGGAAUUCUCGGGUGCCAA,1.03
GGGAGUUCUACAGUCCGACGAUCCAAGGAGGCUCUGCACAGCUCACUUGUGGGGAAGACGGGACAUGCUUCCAGAUUUUCUUUGGGGGUUAGAAGGUCGGAUGUGGAGUUGACACUUGUUAGUCUCUGUGAGCUGGAAUUCUCGGGUGCCAA,0.944
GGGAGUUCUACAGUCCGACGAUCUGAUCACAGGUGAUUCACACGUACACACAUAAACACACCCACCAGUGCAGCCUGAAGUAACUCCCACAGAAACCAUCAUCGUCUUUGUACAUCGUAUGUACAAUGCAAUCUGGAAUUCUCGGGUGCCAA,0.546
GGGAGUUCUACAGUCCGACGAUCCUUGUAUACAGAGUGUUCACUGCUAUUUCAGAUCUUGGUGAGUGUUCCAGUAACCAAGCCAGUCCCCAGGACACUAGUCUACGUUGGCAGGACUUCACAAGUUAAUCAUUUGGAAUUCUCGGGUGCCAA,0.47

# Study 4
# Target: Phosphate system positive regulatory protein PHO4, full length, GST-tagged (PHO4, Saccharomyces cerevisiae, UniProt P07270, residues 1-312)
# Method: competition protein-binding microarray
# Form: double-stranded DNA, one strand shown
# Sample: in vitro
# Concentration: 2 µM
# Setting: whole 60-bp probe, lowest competitor level
# With: Cbf1 competitor, 0.05 µM
# Direction: higher = stronger binding
# Residues (chain): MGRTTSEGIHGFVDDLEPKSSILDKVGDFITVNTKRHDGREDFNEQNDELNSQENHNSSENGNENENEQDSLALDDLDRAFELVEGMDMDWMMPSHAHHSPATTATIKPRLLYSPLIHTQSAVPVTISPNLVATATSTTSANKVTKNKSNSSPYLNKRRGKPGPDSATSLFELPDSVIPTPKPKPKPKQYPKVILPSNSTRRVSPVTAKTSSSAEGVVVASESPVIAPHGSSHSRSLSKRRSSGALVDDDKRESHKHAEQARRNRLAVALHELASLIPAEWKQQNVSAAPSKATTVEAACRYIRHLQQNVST
Sequence,fluorescence intensity [a.u.]
ACACTGCTTTGTACCCACGTTTCAAGAAATGGTGTGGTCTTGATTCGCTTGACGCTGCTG,14800
AACTGCTGAAGTCCCCATGTGACAGTGAGCGGGGTCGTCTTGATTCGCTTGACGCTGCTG,9480
CCTTTTCTGGAGGTACATGTGCGCCCCTGATGAAGAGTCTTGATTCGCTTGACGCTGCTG,11900
AAGTCCTGGCACTTGCATGTGGTTTCGTAGAAGGTAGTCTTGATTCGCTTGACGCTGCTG,8600
CATGATTTCCTATTGTGCGTGCCGAATTTACGGACGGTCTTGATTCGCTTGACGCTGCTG,9350
CTTCTGTAAATTTTTCACGTGGGATGACGCGCCCCGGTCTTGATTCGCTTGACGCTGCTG,15400
GTCTTGTCTCATTGAACTGTGGGTGTCCCCACTTCAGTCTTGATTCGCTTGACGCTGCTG,4460
ATGAATTACCTAACTCAGGTGACGGGGTGTTCAAATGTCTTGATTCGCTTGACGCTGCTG,4320
CTTGCATTGACCGCGAACGTGTAACCACAAGCAAAGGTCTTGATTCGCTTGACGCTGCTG,8580
GGGAATACAAACCTTGATGTGACGCTTTAGCCAATAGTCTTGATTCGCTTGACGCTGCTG,3360
CTAACGAAGGTTTGCGGCGTGGGTGACAAGCCAAGTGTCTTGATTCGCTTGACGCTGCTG,6900
AGCTTGTTTATCTTGCACATGGCAAGGCCATCGCGGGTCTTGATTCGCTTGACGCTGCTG,8960
TGCAGCACCCAGCTTCCCGTGTATCCATACCACCCTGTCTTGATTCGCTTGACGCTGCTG,6240
ATTATGGTAGAGACCCTCGTGAATACTGCATCTTGTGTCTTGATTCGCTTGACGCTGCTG,7140
TACGTTGCTGTATTCCCCGTGGGACATTCTCCAAGTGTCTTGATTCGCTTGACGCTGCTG,9260
AACATCTGCGGACAGCACGTGCGGATTAATTCTCAAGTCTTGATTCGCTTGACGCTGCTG,20000
CGTCCTAGTGATTTTCACGTGGCTTCCATGAGGAAGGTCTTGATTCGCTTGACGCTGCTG,14400
CGTCCTAGTGATTGTCACGATACTTCCATGAGGAAGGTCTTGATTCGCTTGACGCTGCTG,6390
GGGTTTCCTTCTGGTATGATAAATGTGAGCCAAATGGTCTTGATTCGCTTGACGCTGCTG,4860
AAATTACTAAGTTGAGGAGTGGGTGACGCCGTATGAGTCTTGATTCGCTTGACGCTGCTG,4620
TTAAATCGATTGGATCAGGTGAGGAAGTACTCAGTGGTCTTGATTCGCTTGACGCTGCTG,3350
AAGAAATGAGGCCGTCACAGATGTTAAGAATTGAAGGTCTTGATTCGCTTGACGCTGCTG,4940
GTTGTTGCTATCCATCACGTGATGGATTTTTCCGAGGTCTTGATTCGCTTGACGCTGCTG,15100
CGGGGTTAAGTTTGGAGCGTGGGTGGCTTGCAGCAGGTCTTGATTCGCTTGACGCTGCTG,8550
CTAGGGCACCTCCGTCACCTGGCTTTTCTTCAACTTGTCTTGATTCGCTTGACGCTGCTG,3450

# Some of these lines once more (study 2):
Sequence,E-score
ATGGACCA,-0.105
CAAGAATC,0.0107
AAGAGACC,0.13
CCTGCTGA,0.0568
TACCTACA,-0.073
AAGGGCCC,-0.006
ACACAAGA,-0.0296
CAGTCGTC,-0.136
CCAGGATC,-0.0544
